Measurements pooled from the literature.
Compare with care: the assays were run in different laboratories. ± gives the spread as reported.

With `CC(C)(C)OC[C@@H]1C(=O)NCCN1C(=O)C[C@H](N)Cc1cc(F)c(F)cc1F` the steady-state Cmax was 6.09 ± 1.65 ng/mL (human, plasma; oral, dose not given, multiple doses, together with: empagliflozin).
`COc1cc2c(Nc3ccc(Br)cc3F)ncnc2cc1OCC1CCN(C)CC1` — result for “steady-state trough concentration”: 558 ± 175 ng/mL (human patients, plasma; oral, 85 mg/m^2, day 42).
For `N#CC[C@H](C1CCCC1)n1cc(-c2ncnc3[nH]ccc23)cn1`, “steady-state plasma level” read roughly 500 nM (human patients; oral, dose not given).
For `Cc1cc(C)c(CNC(=O)c2cc(Cl)c3c(c2C)O[C@@](C)([C@H]2CC[C@H](N(C)C)CC2)O3)c(=O)[nH]1`, “steady-state apparent clearance (total)” read 58.1 L/h (human, plasma; oral, dose not given, cycle 1 day 15, mean).
Under “steady-state volume of distribution”, `CN(CC#N)C(=O)C[C@H](Nc1nc2ccccc2[nH]1)c1cccc(C(F)(F)F)c1` is recorded as 66.3 ± 22.4 L (human; intravenous infusion, 5 mg/kg, 1 mg/mL formulation).
`O=C(COc1ccc(Cl)cc1)NC12CC(c3nnc([C@H]4C[C@@H](OC(F)(F)F)C4)o3)(C1)C2` gave a steady-state Ctrough of 10 µM (healthy human both sexes, plasma; oral, 200 mg once daily, day 14, mean).
The steady-state concentration of `N#Cc1ccc(C(c2ccc(C#N)cc2)n2cncn2)cc1` is reported as 0.15 ± 0.02 µmol/L (human patients, tumour extracellular fluid; 2.5 mg daily).
`CN(C)C(=O)c1cc2cnc(Nc3ccc(N4CCNCC4)cn3)nc2n1C1CCCC1` has a steady-state clearance of 343 ± 177 mL/min (human, advanced solid tumours, plasma; oral).
